Measurements of several laboratories.
Lines come from different studies, so protocols differ. Several values in a cell are separate wells, animals, samples, runs or records. ± marks the error that the study gave.

SMILES	cell line	assay	setting	how to read	quantity	value
O=C(N1CCCC1)n1cc(-c2ccc(-c3ccccc3)cc2)nn1	mouse T cells	N-terminal labelling proteomics, refers to: Tmsb4x N-terminal peptide	0.001 µM, 6 h	baseline: DMSO	SILAC ratio per peptide	1.18 and 0.87 and 0.89
CCOc1cncc(-c2ccc(NC(=O)C3(c4ccnc(NS(=O)(=O)C5CC5)n4)CCOCC3)nc2)n1	NCI-H929	cell growth or viability, ATP luminescence	72 h	–	IC50	197 nM
CN(C)c1ccc(-n2cc(COC(=O)[C@]3(C)C=C(C(=O)OC(C)(C)C)C(=O)CC3)nn2)cc1	HeLa	quantitative western blot	concentration not given, 20 (unit not given), added: EGF	–	pRSK/tubulin ratio	0.188
C1=[N+]2CCCC[N+]3=Cc4ccc5[n]4[Au-]23[n]2c1ccc2-c1nc2ccccc2nc1-5.F[P-](F)(F)(F)(F)F	TK-10	NCI60 five-dose screen	–	–	TGI	4 -log M
COC(=O)c1cc(NC2=NC(=O)C(=Cc3ccc(C)cc3)S2)ccc1OC(C)=O	MCF7	GC-MS, refers to: L-Tyrosine	1 µM	baseline: DMSO	metabolite level	-0.02 fold change
COc1cc(C(=O)N2CC[C@@H](O)[C@@H](N)C2)cc2nc(-c3cc4cccnc4n3CC3CC3)n(C)c12	human neutrophils	protein citrullination, inhibitor, flow cytometry, refers to: citrullinated histone H3	316 nM, added: ionomycin	–	inhibition	17.1% and 20.9% and 41.6% and 26.6%
CCCCCCCCCCCCCCCC(=O)OCC(CSC[C@H](N)C(=O)N[C@@H](CO)C(=O)N[C@@H](CCCCN)C(=O)N[C@@H](CCCCN)C(=O)N[C@@H](CCCCN)C(=O)N[C@@H](CCCCN)C(=O)NCCCCCC(=O)N[C@@H](CCCCN)C(=O)N[C@@H](CC(C)C)C(=O)N[C@H](C(=O)N[C@@H](Cc1ccccc1)C(=O)N[C@@H](Cc1ccccc1)C(=O)N[C@@H](Cc1ccc2ccccc2c1)C(=O)O)C(C)C)OC(=O)CCCCCCCCCCCCCCC (stereo partly drawn)	BV-2	RNA-seq, refers to: Arg1	concentration not given	–	mRNA level	0.0898 FPKM and 0.126 FPKM and 0.204 FPKM
Fc1ccc(Nc2nc(NC3CCCCC3)c3cc(Br)ccc3n2)cc1F	transfected HEK293 cells	β-arrestin2 recruitment, negative allosteric modulator, BRET	30 min pre-incubation, β1AR ECL1 chimera, added: isoproterenol 1 µM	–	pIC50	6.5
CN(C)CCN1CCN(c2ccc3nc(-c4ccc5nc(-c6ccc(C(F)(F)F)cc6)[nH]c5c4)[nH]c3c2)CC1	KM12	SRB	10 µM, 48 h	–	growth percent	26.5%
Cc1cccc(NC(=O)CC(=O)Nc2ccc3[nH]nc(/C=C/c4ccccn4)c3c2)c1	Ba/F3 TEL-VEGFR2	cell growth, CCK-8	–	–	GI50	180 nM
COc1cccc(OC)c1-c1cc(C(=O)NC2(C(=O)O)C3CC4CC(C3)CC2C4)nn1-c1ccc(C(=O)N(C)CCCN(C)CCCN(C)C(=O)[C@H](CCCCNC(=O)[C@H](CC(C)C)NC(=O)C2OC2C(=O)O)NC(=O)CN2CCN(CC(=O)[O-])CCN(CC(=O)[O-])CCN(CC(=O)[O-])CC2)cc1C(C)C.[177Lu+3] (mixture of isomers)	HT-29	–	concentration not given, 120 min	baseline: added activity	surface-bound fraction	3.38 ± 0.28%
O=C(Nc1nncs1)c1cccc([C@@H]2C[C@H]2NC2CCC2)c1	SET-2	cell growth, CellTiter-Glo	1 µM, 7 d	baseline: vehicle	relative growth	97.3% and 77.6% and 83.7%
Cc1ncsc1-c1ccc(C(C)NC(=O)C2CC(O)CN2C(=O)C(NC(=O)CCCCCCCCCCN2CCCC(Nc3ncc(Cl)c(Nc4ccccc4S(=O)(=O)C(C)C)n3)C2)C(C)(C)C)cc1 (stereo not drawn)	22Rv1	RNA-seq, refers to: ZNF818P mRNA	concentration not given	baseline: DMSO	log2 fold change	-2.23
Cn1ncc2cc(-c3cncc(Cl)c3N3CCC4(CCNC4=O)CC3)ccc21	LS174T	gene expression, microarray, refers to: ALOX5 mRNA	concentration not given, 24 h	baseline: untreated cells	log2 fold change	2.49
CNC(NN=Cc1ccc([N+](=O)[O-])o1)=[S+][Au-][Cl]	CAKI-1	annexin V/PI flow cytometry	5 µM, 72 h	–	cell fraction ANV−/PI+	2.2 ± 0.9%
COCCCCCNc1nc(NCCCCCCN(C)C)c2cc(NC(=O)/C=C/CN(C)C)ccc2n1	MCF7	CellTiter-Glo	25 µM, 48 h, unit not given	baseline: DMSO-treated cells	viability	0.983 and 1.02 and 0.971
COc1cc(N2CCN(C(=O)C3CCCN3)CC2)ccc1Nc1ncc(Cl)c(Nc2ccccc2P(C)(C)=O)n1 (stereo not drawn)	NCI-H3122	annexin V/PI flow cytometry	500 nM, 24 h	–	early apoptotic cells	14%
O=C(Nc1cccc(Sc2ccc3c(/C=C/c4ccccn4)n[nH]c3c2)c1)c1ccco1	Ba/F3 TEL-VEGFR3	cell growth, CCK-8	–	–	GI50	3300 nM
CNS(=O)(=O)Nc1nccc(Cc2c(C)c3ccc(Oc4ncccc4F)cc3oc2=O)c1F	DMS-53	cell viability	7 days	–	IC50	> 1000 nM
C=CS(=O)(=O)Oc1ccc(OC)c(-c2c[nH]c3ncc(-c4cncc(C(=O)N(C)C)c4)cc23)c1	non-BCR-ABL leukaemia cells	–	concentration not given	–	cytotoxicity	not toxic
CCN(CC)CC(=O)Nc1cccc(-n2cc(-c3ccc4ccc(-c5cn(-c6cccc(NC(=O)CN(CC)CC)c6)nn5)cc4c3)nn2)c1	RCC4	PCR angiogenesis array, refers to: IFNG	5 x IC50, 4 h, normoxia	baseline: untreated	fold regulation	1.06
Cc1cc(Cl)cc(-c2ccnc3cc(CN4C(=O)C5C(C4=O)C5(C)C)sc23)c1C[C@@H]1CNCCO1 (stereo partly drawn)	CHP-212 resistant	PI staining flow cytometry	0.1 µM, 24 h	–	cells in S phase	18.3% and 17.3% and 12.7%
CC(C)c1ccc(N(C)c2ccc3c(c2)OCC[C@H]3CNc2cnccc2C(=O)O)cc1	GI-1	cell viability, CellTiter-Glo	7 days	–	IC50	287 nM
COC(=O)c1cc(NC2=NC(=O)C(=Cc3ccc(N(C)C)cc3)S2)ccc1OC(C)=O	MCF7	refers to: RECQL mRNA	0.81 µM (IC50), 24 h	baseline: DMSO	fold change	0.212
CN1CCCNC(=O)c2cccc(c2)C(=O)NCCCN(C)CCCNc2cccc3c2C(=O)c2cccc(c2C3=O)NCCC1	SAS	RNA-Seq, refers to: WBP4 mRNA	1 µM, 6 h	baseline: untreated cells	log2 fold change	0.595
C=CC(=O)N1CCCC(n2c(=O)c3ncccc3n(Cc3ccc(Oc4ccccc4)cc3)c2=O)C1 (stereo not drawn)	Rec1	refers to: JUNB	concentration not given	baseline: untreated	log2 fold change	0.48
CCCCCCCCN(CCC(=O)Nc1ccccc1)C(=O)c1ccoc1	progeroid mouse fibroblasts, Lmna G609G/G609G	MTT	2 µM, 72 h	baseline: vehicle-treated wild type	viability	77 ± 5%
CC(C)C[C@H](NC(=O)[C@@H]1CCCN1C(=O)[C@H](CCCCN)NC(=O)[C@@H](N)CO)C(=O)N1CCC[C@H]1C(=O)N[C@@H](CCC(=O)O)C(=O)N[C@H](C(=O)N[C@H](C(=O)N[C@@H](CC(=O)O)C(=O)N[C@@H](CCC(=O)O)C(=O)N[C@@H](Cc1ccc(O)cc1)C(=O)NCC(=O)NCCOCCOCCOCCOCCOCCOCCOCCOCCOCCOCCOCCOCCOCCOCCOCCOCCOCCOCCOCCOCCOCCOCCOCCOCCC(=O)N[C@@H](CCCCNC(=O)CC[C@H](C(=O)O)N1CCN(CC(=O)O)CCN(CC(=O)O)CC1)C(=O)N1CCN(CCCN(C)c2ccc3nccc(C(=O)NCC(=O)N4CC(F)(F)C[C@H]4C#N)c3c2)CC1)[C@@H](C)O)C(C)C	HT-1080 expressing hFAP	binding, flow cytometry	4 °C, apparent	–	Kd	13.9 nM
CCCCCCCCCCCC(=O)N[C@@H](CO)C[C@@H](O)c1cccc(CCCCCC)c1	HeLa	HPLC-MS-MS lipidomics, refers to: C18 SM and ceramide	1 µM, 24 h	baseline: SM over Cer	SM/Cer ratio	17 ,1
CSC(=S)N/N=C(\C)c1ccc(Nc2nnc(-c3ccc(Cl)cc3)c3ccccc23)cc1	HepG2	cell growth or viability, MTT	1.25 µM, 24 h	–	viability	3.59%
